Experimental data pooled from the literature.
Protocols differ between the studies behind these lines. Numbers after ± are the reported error.
B1: F13A1 (Homo sapiens, UniProt P00488); chain GVNLQEFLNVTSVHLFKERWDTNKVDHHTDKYENNKLIVRRGQSFYVQIDFSRPYDPRRDLFRVEYVIGRYPQENKGTYIPVPIVSELQSGKWGAKIVMREDRSVRLSIQSSPKCIVGKFRMYVAVWTPYGVLRTSRNPETDTYILFNPWCEDDAVYLDNEKEREEYVLNDIGVIFYGEVNDIKTRSWSYGQFEDGILDTCLYVMDRAQMDLSGRGNPIKVSRVGSAMVNAKDDEGVLVGSWDNIYAYGVPPSAWTGSVDILLEYRSSENPVRYGQCWVFAGVFNTFLRCLGIPARIVTNYFSAHDNDANLQMDIFLEEDGNVNSKLTKDSVWNYHCWNEAWMTRPDLPVGFGGWQAVDSTPQENSDGMYRCGPASVQAIKHGHVCFQFDAPFVFAEVNSDLIYITAKKDGTHVVENVDATHIGKLIVTKQIGGDGMMDITDTYKFQEGQEEERLALETALMYGAKKPLNTEGVMKSRSNVDMDFEVENAVLGKDFKLSITFRNNSHNRYTITAYLSANITFYTGVPKAEFKKETFDVTLEPLSFKKEAVLIQAGEYMGQLLEQASLHFFVTARINETRDVLAKQKSTVLTIPEIIIKVRGTQVVGSDMTVTVEFTNPLKETLRNVWVHLDGPGVTRPMKKMFREIRPNSTVQWEEVCRPWVSGHRKLIASMSSDSLRHVYGELDVQIQRRPSM
B2: enzyme A172S/A173G/A497K/C179K/M174T/Q178P (Streptomyces platensis, UniProt A0A0A0V031); chain MQHTTIGDVLREHRRSHPGRTALVDGPVRLTWPELDDRVNRLAGSLAASGIGRGDRIMWLGQNSFRVYELIAAAGKLGAMVCVGYWRWAPPEMEFALRDFDPHLVVWQHQEIHETVARTREALGSDDTARWLRHDSAPQDPDGYEAFLAAGGLADPDLDIDPDSPVLVLYTSGTSGRPKGSLLSHTNLIAMATAAAWLGDIDHTTAFLNSGPMFHIGNHQFWGMPTLLMAGKNVIVRRVVAEEVRDLLVAEECTHAFLMPPTVAEIVRLNRDTGHDLSRLRATVAPHLWEGMATTDTSRFTRSGAAAGRGYGQTELSGFAVTAAYGGPAAGNAGRPGPGLTVRVLDTAGRECAVGEAGEICARGTVVHRGYWNRDEVNAHRFRSGWWHTTDLGRREPDGSLTFLGTTTRMLKSAAENIFPAEVENCIEQHPAVREAAVIGVPNTRWAQDVKAVVVLEPDAGVSEQEIIDHCRPRIASYKKPKSVAFAAALPRTVSGKRDYDALDKEYGGGGYPGAATLGPGR
B3: dmaW (Aspergillus fumigatus, UniProt Q50EL0); chain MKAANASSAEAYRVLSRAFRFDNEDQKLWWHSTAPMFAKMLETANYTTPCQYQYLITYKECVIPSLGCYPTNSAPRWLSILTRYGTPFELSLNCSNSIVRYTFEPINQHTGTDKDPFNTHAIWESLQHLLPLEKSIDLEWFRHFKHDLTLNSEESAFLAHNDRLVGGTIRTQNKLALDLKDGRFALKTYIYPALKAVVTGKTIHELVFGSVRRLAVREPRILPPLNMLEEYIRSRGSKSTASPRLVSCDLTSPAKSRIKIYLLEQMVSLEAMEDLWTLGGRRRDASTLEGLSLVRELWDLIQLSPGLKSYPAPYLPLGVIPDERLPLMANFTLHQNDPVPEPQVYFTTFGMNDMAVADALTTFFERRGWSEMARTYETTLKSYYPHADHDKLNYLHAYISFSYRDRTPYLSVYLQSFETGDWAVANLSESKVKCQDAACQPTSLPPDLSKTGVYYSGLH
B4: enzyme A497K (Streptomyces platensis, UniProt A0A0A0V031); chain MQHTTIGDVLREHRRSHPGRTALVDGPVRLTWPELDDRVNRLAGSLAASGIGRGDRIMWLGQNSFRVYELIAAAGKLGAMVCVGYWRWAPPEMEFALRDFDPHLVVWQHQEIHETVARTREALGSDDTARWLRHDSAPQDPDGYEAFLAAGGLADPDLDIDPDSPVLVLYTAAMSGRQCGSLLSHTNLIAMATAAAWLGDIDHTTAFLNSGPMFHIGNHQFWGMPTLLMAGKNVIVRRVVAEEVRDLLVAEECTHAFLMPPTVAEIVRLNRDTGHDLSRLRATVAPHLWEGMATTDTSRFTRSGAAAGRGYGQTELSGFAVTAAYGGPAAGNAGRPGPGLTVRVLDTAGRECAVGEAGEICARGTVVHRGYWNRDEVNAHRFRSGWWHTTDLGRREPDGSLTFLGTTTRMLKSAAENIFPAEVENCIEQHPAVREAAVIGVPNTRWAQDVKAVVVLEPDAGVSEQEIIDHCRPRIASYKKPKSVAFAAALPRTVSGKRDYDALDKEYGGGGYPGAATLGPGR
Sequence of UniProt P21729 (whole entry, looked up): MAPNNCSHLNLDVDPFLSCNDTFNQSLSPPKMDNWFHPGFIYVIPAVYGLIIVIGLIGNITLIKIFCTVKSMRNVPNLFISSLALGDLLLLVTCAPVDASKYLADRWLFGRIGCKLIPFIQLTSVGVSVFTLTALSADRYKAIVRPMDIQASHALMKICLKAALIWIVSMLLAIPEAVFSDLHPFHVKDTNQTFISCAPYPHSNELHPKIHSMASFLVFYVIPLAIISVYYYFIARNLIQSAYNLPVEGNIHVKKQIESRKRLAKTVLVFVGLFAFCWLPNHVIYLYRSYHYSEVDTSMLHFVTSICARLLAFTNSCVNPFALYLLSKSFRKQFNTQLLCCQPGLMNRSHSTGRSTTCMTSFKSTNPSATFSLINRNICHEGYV

For `C[C@H]1COc2c(N3CCN(C)CC3)c(F)cc3c(=O)c(C(=O)N[C@@H](CCCNC(=N)N)C(=O)N[C@@H](Cc4ccc(-c5ccccc5)cc4)C(=O)N[C@@H](CCCNC(=N)N)C(=O)N[C@@H](Cc4ccc(-c5ccccc5)cc4)C(=O)N[C@@H](CCCNC(=N)N)C(N)=O)cn1c23`, the hemolysis was 0% (human erythrocytes; 3.125 µM, 1 h, 37 °C; baseline: Triton X-100).
`N=C(N)NCCC[C@@H]1NC(=O)[C@H](CCCCNC(=O)CC[C@H](NC(=O)CCOCCOCCOCCOCCNC(=O)CN2CCN(CC(=O)O)CCN(CC(=O)O)CCN(CC(=O)O)CC2)C(=O)NCCCC[C@@H]2NC(=O)[C@@H](Cc3ccccc3)NC(=O)[C@H](CC(=O)O)NC(=O)CNC(=O)[C@H](CCCNC(=N)N)NC2=O)NC(=O)[C@@H](Cc2ccccc2)NC(=O)[C@H](CC(=O)O)NC(=O)CNC1=O` [indium-111 labelled] gave a tissue uptake of 1.03 ± 0.26 %ID/g (female athymic nude mice, heart; intravenous, 3 µCi, 0.5 h, U-87 MG glioma xenograft).
The kcat of `B1 (F13A1)` is reported as 0.5 s⁻¹ (CC(C)C[C@H](NC(=O)[C@H](CC(C)C)NC(=O)[C@H](CO)NC(=O)[C@H](CC(C)C)NC(=O)[C@@H]1CCCN1C(=O)[C@H](CO)NC(=O)[C@@H](NC(=O)[C@H](CCC(N)=O)NC(=O)[C@H](CCC(=O)O)NC(=O)[C@@H](N)CCC(N)=O)C(C)C)C(=O)N[C@@H](CCCCN)C(=O)O; steady-state kinetics).
With `CCCNC(=O)[C@H](CC(C)C)NC(=O)[C@H](Cc1c[nH]cn1)NC(=O)CNC(=O)[C@@H](NC(=O)[C@H](C)NC(=O)[C@H](Cc1c[nH]c2ccccc12)NC(=O)[C@H](CCC(N)=O)NC(=O)[C@@H](Cc1ccccc1)NC(=O)CCCCCNC(=O)CN1CCN(CC(=O)O)CCN(CC(=O)O)CCN(CC(=O)O)CC1)C(C)C` [indium-111 labelled] the tissue uptake was 0.07 ± 0.01 %ID/g (Gastrin-releasing peptide receptor (Mus musculus, UniProt P21729); biodistribution; CF-1 mice, bone; intravenous, 1 h, unblocked).
With `B2` the kcat was 14 s⁻¹ (C[C@@]12CCC[C@@](C)(C(=O)OP(=O)(O)OC[C@H]3O[C@@H](n4cnc5c(N)ncnc54)[C@H](O)[C@@H]3O)[C@H]1C[C@@H](O)[C@]13C[C@H]4C[C@H](O[C@@]4(C)C1)[C@@H]23; steady-state kinetics; pH 7.8, 25 °C).
For `B3 (dmaW)`, the kcat was 0.165 ± 0.00667 s⁻¹ (CC/C(C)=C/COP(=O)(O)OP(=O)(O)O; steady-state kinetics; pH 7.5, 35 °C).
Under “tumour to tissue ratio”, `N=C(N)NCCC[C@@H]1NC(=O)[C@H](CCCCNC(=O)CCOCCOCCOCCOCCNC(=O)CC[C@H](NC(=O)CCOCCOCCOCCOCCNC(=O)CC[C@H](NC(=O)CN2CCN(CC(=O)O)CCN(CC(=O)O)CCN(CC(=O)O)CC2)C(=O)NCCOCCOCCOCCOCCC(=O)N[C@@H](CCC(=O)NCCOCCOCCOCCOCCC(=O)NCCCC[C@@H]2NC(=O)[C@@H](Cc3ccccc3)NC(=O)[C@H](CC(=O)O)NC(=O)CNC(=O)[C@H](CCCNC(=N)N)NC2=O)C(=O)NCCOCCOCCOCCOCCC(=O)NCCCC[C@@H]2NC(=O)[C@@H](Cc3ccccc3)NC(=O)[C@H](CC(=O)O)NC(=O)CNC(=O)[C@H](CCCNC(=N)N)NC2=O)C(=O)NCCOCCOCCOCCOCCC(=O)NCCCC[C@@H]2NC(=O)[C@@H](Cc3ccccc3)NC(=O)[C@H](CC(=O)O)NC(=O)CNC(=O)[C@H](CCCNC(=N)N)NC2=O)NC(=O)[C@@H](Cc2ccccc2)NC(=O)[C@H](CC(=O)O)NC(=O)CNC1=O` [indium-111 labelled] is recorded as 4.68 ± 1.72 (athymic nude mice, female, U-87 MG glioma xenograft, tumour and lungs; intravenous, 24 h; baseline: tumour over lungs).
`C=Cc1c(C)c2cc3nc(c4c5[nH]c(cc6nc(cc1[nH]2)C(C)=C6CC)c(C)c5C(=O)C4)[C@@H](CCC(=O)NCC(=O)N1CCC[C@H]1C(=O)N[C@@H](CC(C)C)C(=O)NCC(=O)N[C@@H](Cc1ccccc1)C(=O)N[C@@H](CCCNC(=N)N)C(=O)N[C@H](C(=O)NCC(=O)N[C@@H](CCCCN)C(N)=O)C(C)C)[C@@H]3C` gave a fluorescent cells of 38 ± 2% (OA patient chondrocytes; flow cytometry, item: cellular uptake; 1 µM, 1 h).
For `B4 (enzyme A497K)`, the kcat/Km was 1.6e+07 M⁻¹ s⁻¹ (C[C@@]12CCC[C@@](C)(C(=O)OP(=O)(O)OC[C@H]3O[C@@H](n4cnc5c(N)ncnc54)[C@H](O)[C@@H]3O)[C@H]1C[C@@H](O)[C@]13C[C@H]4C[C@H](O[C@@]4(C)C1)[C@@H]23; steady-state kinetics; pH 7.8, 25 °C).
The uptake of `CCCC[C@H](NC(=O)CCCCCCCNC(=O)c1ccc(NN)nc1)C(=O)N[C@H]1CC(=O)NCCCC[C@@H](C(N)=O)NC(=O)[C@H](Cc2c[nH]c3ccccc23)NC(=O)[C@H](CCCNC(=N)N)NC(=O)[C@@H](Cc2ccccc2)NC(=O)[C@H](Cc2c[nH]cn2)NC1=O` [technetium-99m labelled] is reported as 0.44 ± 0.64 %ID/g (C57 mouse, B16/F1 melanoma, pancreas; intravenous, 4 h).

For quick reference, copied from above:
With `CCCNC(=O)[C@H](CC(C)C)NC(=O)[C@H](Cc1c[nH]cn1)NC(=O)CNC(=O)[C@@H](NC(=O)[C@H](C)NC(=O)[C@H](Cc1c[nH]c2ccccc12)NC(=O)[C@H](CCC(N)=O)NC(=O)[C@@H](Cc1ccccc1)NC(=O)CCCCCNC(=O)CN1CCN(CC(=O)O)CCN(CC(=O)O)CCN(CC(=O)O)CC1)C(C)C` [indium-111 labelled] the tissue uptake was 0.07 ± 0.01 %ID/g (Gastrin-releasing peptide receptor (Mus musculus, UniProt P21729); biodistribution; CF-1 mice, bone; intravenous, 1 h, unblocked).
